Published values pooled from the literature.
Each numbered part is a random draw from the data of one study; scales do not carry over between parts. Changes are numbered by the printed parent chain.
Chain of UniProt P37023 (whole entry, looked up): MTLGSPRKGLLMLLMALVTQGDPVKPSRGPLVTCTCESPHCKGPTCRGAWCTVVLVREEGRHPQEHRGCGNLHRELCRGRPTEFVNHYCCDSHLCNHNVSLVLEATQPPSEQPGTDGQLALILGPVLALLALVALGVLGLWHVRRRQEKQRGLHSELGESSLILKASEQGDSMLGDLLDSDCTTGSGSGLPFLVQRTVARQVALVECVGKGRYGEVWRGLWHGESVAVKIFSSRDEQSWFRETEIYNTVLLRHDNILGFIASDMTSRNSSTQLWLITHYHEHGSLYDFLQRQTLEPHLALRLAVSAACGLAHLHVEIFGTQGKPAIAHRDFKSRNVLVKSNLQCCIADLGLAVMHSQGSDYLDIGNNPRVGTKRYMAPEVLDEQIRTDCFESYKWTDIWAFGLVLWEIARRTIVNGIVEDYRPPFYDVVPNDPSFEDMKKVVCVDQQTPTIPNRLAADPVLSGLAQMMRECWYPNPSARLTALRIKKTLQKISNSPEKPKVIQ

Series 1
Target: HLA class I histocompatibility antigen, C alpha chain, allele C*04:01 (Homo sapiens, UniProt P10321)
Observed: peptide-MHC binding
Form: peptide
Tested at: concentration not given
| Sequence | binding |
| --- | --- |
| TFDVAPSRL | active |
| RARRLRRAL | inactive |
| FQWWRSHPL | inactive |
| MAWLFFWAI | inactive |
| YSLEYFQFVKK | inactive |
| HYNAFHWAI | inactive |
| VLYHRYNLV | inactive |
| LEMNDAPTA | inactive |

Series 2
Target: 5-hydroxytryptamine receptor 2A (HTR2A, Homo sapiens, UniProt P28223)
Chain of UniProt P28223 (whole entry, looked up): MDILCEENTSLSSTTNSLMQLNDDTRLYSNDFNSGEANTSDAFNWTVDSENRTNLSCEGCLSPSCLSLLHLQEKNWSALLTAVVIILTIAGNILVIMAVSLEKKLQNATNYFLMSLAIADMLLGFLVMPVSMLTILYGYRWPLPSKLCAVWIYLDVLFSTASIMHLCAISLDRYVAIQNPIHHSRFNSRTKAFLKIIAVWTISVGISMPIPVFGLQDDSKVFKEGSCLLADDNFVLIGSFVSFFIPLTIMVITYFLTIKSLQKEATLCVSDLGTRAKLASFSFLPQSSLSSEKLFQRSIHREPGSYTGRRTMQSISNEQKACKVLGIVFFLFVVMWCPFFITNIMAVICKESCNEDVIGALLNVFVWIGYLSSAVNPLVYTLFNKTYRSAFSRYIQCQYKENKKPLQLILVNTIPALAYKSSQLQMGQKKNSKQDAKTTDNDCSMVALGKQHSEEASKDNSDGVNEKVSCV
Observed: ligand displacement
Tested at: 10 µM
| SMILES | inhibition [%] |
| --- | --- |
| COc1ccc2c(c1)O[C@H](c1ccc(OC)c(OC)c1)C[C@@H]2NC(=O)C1(c2ccc3c(c2)OC(F)(F)O3)CC1 | 8.84 |
| Cn1nc(C(=O)NCc2ccc(C(=O)O)cc2)cc1-c1ccc2[nH]ccc2c1 | 23.6 |
| Cn1cc(Cl)c2c(Oc3c(F)cc(Nc4cc(Cl)nc(N)n4)cc3F)ccnc21 | -1.36 |
| CC1=C(C#N)C(c2ccc3[nH]nc(C)c3c2)C(C#N)=C(C)N1 | 8.75 |
| CC(=O)Nc1ncc(CN2CCC[C@H](Cc3cc(C)nc(C)c3)C2)s1 | -2.94 |
| c1ccc(N2CCN(Cc3nc4ccccc4[nH]3)CC2)nc1 | 2.58 |
| CO[C@@H](C)c1c(Nc2ccc([C@H](N(C)C(=O)C3CCS(=O)(=O)CC3)C(F)(F)F)cc2)cnc2cc(Cl)nn12 | 2.45 |
| N#CN1CC[C@H](C(=O)Nc2nc3c(s2)CN(C(=O)CN=[N+]=[N-])CC3)C1 | 30 |
| C[C@@H]1CN(c2cc(-c3nn(C)c4ccc(OC5(C)CC5)cc34)ncn2)C[C@H](C)O1 | 3.31 |
| O=S(=O)(NC1CCC(c2cc(F)ccc2F)(S(=O)(=O)c2ccc(Cl)cc2)CC1)C(F)(F)F (centres unmarked) | 31.2 |
| Cc1c[nH]c2nccc(Oc3c(F)cc(Nc4cc(Cl)nc(N)n4)cc3F)c12 | -13.2 |
| O=C(NCCCC1CCCCC1)c1ccc(CNC(=O)c2cnn(-c3ccccc3)c2C(F)(F)F)cc1 | 8.57 |
| CNC(=O)Nc1ccc2c(c1)[C@]1(CC2)OC(=O)N(CC(=O)N(Cc2ccc(F)cc2)[C@@H](C)C(F)(F)F)C1=O | 26.6 |
| Cc1ccc(-c2cnc([C@@]3(O)CC[C@H](C(=O)O)C(C)(C)C3)s2)cc1Nc1cccc(C(F)(F)F)n1 | 11.2 |
| Cc1ncc(-c2cc(Cl)ccc2F)cc1-n1c(=O)n(CC(N)=O)c2ccccc21 | 11.2 |

Series 3
Target: CCNA1, cyclin fold, Cln2 fusion (human)
Method: yeast growth competition, sequencing
Medium: yeast
Setting: strong parent motif
Reference: not given
Reading: higher = stronger binding
Parent: viral docking peptide; YKVKRRLVFGADD; partner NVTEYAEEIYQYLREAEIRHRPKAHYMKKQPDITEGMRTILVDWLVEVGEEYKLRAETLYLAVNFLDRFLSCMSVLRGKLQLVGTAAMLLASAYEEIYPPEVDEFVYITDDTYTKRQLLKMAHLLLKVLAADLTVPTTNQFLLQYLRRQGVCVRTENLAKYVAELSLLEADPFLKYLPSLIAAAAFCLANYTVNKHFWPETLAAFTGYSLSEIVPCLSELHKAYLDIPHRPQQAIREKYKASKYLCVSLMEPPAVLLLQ
| Substitution | normalised enrichment score |
| --- | --- |
| K2G | 1.6 |
| G10T | 1.17 |
| R5P | -0.0526 |
| L7A | 0.237 |
| A11Y | 1.28 |
| L7N | 0.716 |
| K2C | 1.05 |
| A11L | 1.28 |

Single results of other studies
| Compound | target | observed | mode | tested at | reference | endpoint | value |
| --- | --- | --- | --- | --- | --- | --- | --- |
| O=C1NC(=O)c2c1c1c3ccccc3n3c1c1c2c2ccccc2n1[C@H]1CC[C@@H]3O1 | Activin receptor type-1-like (ACVRL1, Homo sapiens, UniProt P37023) | enzyme activity | inhibitor | 0.5 µM | control | remaining activity | 78.6% |
